# Published values pooled from the literature.
# A part holds a random share of what one study measured.

# Series 1 — effect on: enzyme activity; mode: inhibitor; tested at: 20 µM
# Target: Replicase polyprotein 1ab, polymerase (rep, Severe acute respiratory syndrome coronavirus 2, UniProt P0DTD1)
Compound,inhibition [%]
Clc1cccc(-c2nnnn2Cc2cccnc2)c1Cl,-23.2
CCCN(CCC)C1Cc2cc(OC)c(OC)cc2C1,-2.81
c1ccc2c(c1)Sc1ccccc1N2C[C@@H]1CN2CCC1CC2,12.2
CN[C@H]1CN(c2ccc3c(=O)c(C(=O)O)cn(-c4nccs4)c3n2)C[C@@H]1OC,0.04
CC1(COc2ccc3c(c2)ncn3-c2ccc3cccc(N4CCC(N)CC4)c3n2)COC1,6.05
c1ccc2c(Cc3c[nH]c4ccccc34)c[nH]c2c1,-1.79
Cc1nnc(C(C)C)n1[C@@H]1C[C@H]2CC[C@@H](C1)N2CC[C@H](NC(=O)C1CCC(F)(F)CC1)c1ccccc1,-1.39
O=C(CN1CCN(C(=O)c2ccco2)CC1)Nc1cc(C(F)(F)F)ccc1Cl,-2.18

# Series 2 — cell line: HEK-293T/ACE2; tested at: 10 µM; time: 16 h; reference: vehicle
SMILES,viability [%]
Cc1cn([C@H]2C[C@H](N=[N+]=[N-])[C@@H](CO)O2)c(=O)[nH]c1=O,98.1
Cc1cc(C2CCCCC2)n(O)c(=O)c1,74.5
Cn1cc[nH]c1=S,98.1

# Series 3 — effect on: enzyme activity; mode: inhibitor; tested at: 20 µM; notes: primary screen
# Target: Replicase polyprotein 1ab, main protease (rep, Severe acute respiratory syndrome coronavirus 2, UniProt P0DTD1)
Compound,inhibition [%]
COc1cc(/C=C(\C#N)C(N)=O)cc(CSc2nc3ccccc3s2)c1O,77.1
NC(CO)C(=O)NNCc1ccc(O)c(O)c1O (stereo not shown),99.5
Sc1nnnn1-c1ccccc1,97.8

# Mixed results — organism: SARS-CoV-2; effect on: cytopathic effect; strain: USA_WA1/2020; notes: round 2, 5-point
Compound,efficacy [%]
CC(C)(Nc1nc(N2CCNCC2)nc2ccccc12)c1ccccc1,52.5
CCCCN(CCCC)CCCNC(=O)c1cc(-c2ccc(Cl)s2)nc2ccccc12,81.3

# Repeated from above (series 1):
Compound,inhibition [%]
c1ccc2c(Cc3c[nH]c4ccccc34)c[nH]c2c1,-1.79
